# Published values gathered from unrelated publications.
# Lines come from different studies, so protocols differ. “And” joins repeats or separate records; there may be more than shown.
Structure (SMILES),tested on,assay,test system,setting,scale,endpoint,value
CC[C@H](C)[C@@H]1NC(=O)[C@@H]2CCCN2C(=O)[C@H](CC(C)C)NC(=O)[C@H](CC(C)C)NC(=O)CNC(=O)[C@@H](NC(=O)[C@@H](NC(=O)[C@H](CC(=O)O)NC(=O)CNC(=O)[C@@H](NC(=O)[C@H](C)NC(=O)CNC(=O)[C@H](CCCCN)NC(=O)[C@H](CC(C)C)NC(=O)[C@H](CC(C)C)NC(=O)[C@H](CCCCN)NC(=O)CNC(=O)[C@@H](NC(=O)[C@@H](N)CC(C)C)C(C)C)C(C)C)C(C)C)CSSC[C@@H](C(=O)O)NC1=O,,"RNA-seq, refers to: mt-Tg mRNA","mouse traumatic brain injury, frontal cortex and hippocampus",dose not given,reference: TBI plus compound vs TBI,log2 fold change,-6.44
COc1c(CCC[P+](c2ccccc2)(c2ccccc2)c2ccccc2)cc2c(c1OC)OCO2.[I-],RPMI-8226,SRB,,,,GI50,-6.63 log M
CNC(=O)Oc1cccc2c1OC(C)(C)C2O (centres unmarked),SH-SY5Y,"neurite outgrowth inhibition, phase-contrast imaging",,freely dissolved concentration,,EC10,4.81 µM
CCCCCn1cc(C(=O)C2C(C)(C)C2(C)C)c2ccccc21,,"hypothermia, mouse tetrad, refers to: rectal temperature",ICR mouse male,intravenous,,ED50,0.6 µmol/kg
NC(=O)c1ccc(Cn2c(=S)[nH]c3ccc(Cl)cc3c2=O)cn1,Mycobacterium tuberculosis,,PptT conditional knockdown,,,MIC90,40.7 µM
CC[C@H](C)[C@H](NC(=O)[C@H](C)NC(=O)[C@H](CCCCN)NC(=O)[C@H](CC(C)C)NC(=O)[C@H](C)NC(=O)[C@@H](NC(=O)[C@H](Cc1c[nH]cn1)NC(=O)[C@H](CC(C)C)NC(=O)[C@@H](NC(=O)[C@@H](NC(=O)[C@H](CCCCN)NC(=O)[C@H](C)NC(=O)[C@H](C)NC(=O)[C@H](CO)NC(=O)[C@H](CCCCN)NC(=O)[C@H](Cc1ccccc1)NC(=O)[C@@H](NC(=O)[C@H](CCCCN)NC(=O)[C@H](CC(C)C)NC(=O)[C@H](Cc1ccccc1)NC(=O)[C@H](CO)NC(=O)[C@H](CCCCN)NC(=O)[C@H](Cc1c[nH]c2ccccc12)NC(=O)[C@H](CCCCN)NC(C)=O)[C@@H](C)O)[C@@H](C)O)C(C)C)[C@@H](C)O)C(=O)N[C@@H](CO)C(=O)N[C@@H](CO)C(N)=O,Enterobacter aerogenes,,,40 strains,,MBC90,> 64 µg/mL
C[C@]1(CO)Cc2ncn(-c3ccc(C#N)c(Cl)c3)c2C(=O)O1,aldosterone synthase,inhibitor,"human, plasma","40 and 80 mg, days 14 and 15, Japanese multiple ascending dose",reference: baseline,plasma 11-deoxycortisol,increased
CC(C)(C)OC(=O)CCC1(C(F)(F)F)N=C(c2ccc(O)cc2)C(=O)O1 (centres unmarked),Schistosoma mansoni,microscopic viability scoring,newly transformed schistosomula,"10 µM, 72 h, prescreen",,viability reduction,20%
CC[C@@H](C)[C@@H](NC(=O)[C@@H](Cc1ccc(O)cc1)NC(=O)[C@H]1CCCN1C(=O)[C@@H](CCCNC(=N)N)NC(=O)[C@H](N)Cc1c[nH]cn1)C(=O)N[C@H](C)C(=O)N[C@H](Cc1c[nH]cn1)C(=O)N[C@H](CCCNC(=N)N)C(=O)N[C@H](CCCCNC(=O)c1cccc(S(=O)(=O)F)c1)C(=O)N[C@H](Cc1ccc(O)cc1)C(=O)N[C@H](CO)C(=O)N[C@H](Cc1ccccc1)C(N)=O,,ex vivo flow cytometry,"GL261-Luc brain tumour mice, tumour",dose not given,,IFN-γ+ CD4+ T cell frequency,4.55% and 4.34% and 8.34%
COc1ccc(-c2cc(C(F)(F)F)c3c(N)c(C(=O)N4C5CCCC4COC5)sc3n2)cc1,Mycobacterium tuberculosis,,H37Rv wild type,,reference: HepG2 IC50 over M. tuberculosis IC90,selectivity index,< 1
O=C(Nc1cccnn1)N1CCN([C@@H]2CCOc3cc(C(F)(F)F)ccc32)CC1,sigma receptor (non-selective),binding,,20 µM,,inhibition,64%
Clc1ccc(-c2ccccc2Cl)cc1,"gap junction, rat","gap junctional communication, scrape loading dye transfer",WB-F344 rat liver epithelial,1 h,,IC50,27 µM
COc1cc(CCC[P+](c2ccccc2)(c2ccccc2)c2ccccc2)c(OC)c2c1OCO2.[I-],RPMI-8226,SRB,,,,LC50,> -4 log M
COc1ccc(-n2nc(C(C)=O)s/c2=N\N=C(/C)c2ccc(NC(C)=O)cc2)cc1,HepG2,,,0.078 µM,,viability,91%
Cc1ccc(NC(=O)c2sc3nc(C)cc(C(F)(F)F)c3c2N)cc1,Mycobacterium tuberculosis,growth inhibition,H37Rv LepB under-expressing,,,IC50,> 100 µM
CC(C)n1ncc2c(C(=O)NCC3(C)CNC3)cc(C3CC3)nc21,Enterovirus D68,"viral replication, plaque",US/MO/14-18947 recombinant wild type,,,EC50,0.13 µM
COc1ccc(-c2cc(C(F)(F)F)c3c(N)c(C(=O)N4CCCC4(C)C)sc3n2)cc1,Mycobacterium tuberculosis,,H37Rv wild type,,reference: HepG2 IC50 over M. tuberculosis IC90,selectivity index,< 1
CCCCC1(CCCC)CN(c2ccccc2)c2cc(SC)c(OCC(=O)N[C@@H](C(=O)NCC(=O)O)c3ccccc3)cc2S(=O)(=O)C1,,refers to: HDL cholesterol,"human, serum","5 mg once daily, day 13",,serum HDL-C,48.3 mg/dL
Nc1c(C(=O)N2CCCC2)sc2nc(-c3ccc4c(c3)OCO4)cc(C(F)(F)F)c12,Mycobacterium tuberculosis,growth inhibition,H37Rv LepB under-expressing,,,IC50,> 100 µM
COc1cccc2c1C(O)CC(C)(C(O)/C=C/C(=O)OC(C)(C)C)O2 (centres unmarked),Schistosoma mansoni,microscopic viability scoring,newly transformed schistosomula,"10 µM, 72 h, prescreen",,viability reduction,48.3%

# Excerpt of the above:
Structure (SMILES),tested on,assay,test system,setting,scale,endpoint,value
CCCCCn1cc(C(=O)C2C(C)(C)C2(C)C)c2ccccc21,,"hypothermia, mouse tetrad, refers to: rectal temperature",ICR mouse male,intravenous,,ED50,0.6 µmol/kg
Cc1ccc(NC(=O)c2sc3nc(C)cc(C(F)(F)F)c3c2N)cc1,Mycobacterium tuberculosis,growth inhibition,H37Rv LepB under-expressing,,,IC50,> 100 µM
COc1c(CCC[P+](c2ccccc2)(c2ccccc2)c2ccccc2)cc2c(c1OC)OCO2.[I-],RPMI-8226,SRB,,,,GI50,-6.63 log M
